Literature values as cited in several papers.
Lines come from different studies, so protocols differ.

Molecule | organism | test | system | setting | EC50 [nM]
CCCCCCCCCCCCCCCCOP(=O)([O-])OCC[N+](C)(C)C | Leishmania donovani |  | intramacrophage amastigotes |  | 900
C[C@H]1c2cccc(O)c2C(=O)C2=C(O)[C@]3(O)C(=O)C(C(N)=O)=C(O)[C@@H](N(C)C)[C@@H]3[C@@H](O)[C@@H]21 | Plasmodium falciparum | parasite growth | blood stage |  | 300
Nc1c(Cc2cccc3ccccc23)c(C2CC2)c2n(c1=O)C(C(=O)Nc1ccccc1)CS2 (stereo not shown) | Chlamydia trachomatis | infectivity | serovar L2 |  | < 60
CC(C)Oc1cc(NC(=N)c2ccccn2)ccc1-c1ccc(-c2ccc(NC(=N)c3ccccn3)cc2OC(C)C)s1 | Trypanosoma cruzi |  | Y strain, bloodstream trypomastigotes | 24 h, 37 °C | 20
Cc1cn([C@H]2C[C@H](N=[N+]=[N-])[C@@H](CO)O2)c(=O)[nH]c1=O | HIV-1 |  | MT-4, LAI.04 |  | 3
OC(CN1CCC2(CC1)CC(O)c1ccc3ccccc3c1O2)c1ccc(F)c(F)c1 (stereo not shown) | Plasmodium falciparum |  | Dd2 chloroquine-resistant |  | 350
CCc1nc(N)nc(N)c1-c1ccc(Cl)cc1 | Toxoplasma gondii | parasite growth | RH |  | 402
Cn1c(C(=O)NCCCc2c[nH]c(N)n2)cc(Br)c1Br | Pseudomonas aeruginosa | biofilm dispersion | PA14 | 50% dispersion | 215000
COc1cc(Cc2cnc(N)nc2N)cc(OC)c1OC | Sarcocystis neurona | parasite growth |  |  | ~8600
Nc1ccn([C@@H]2CS[C@H](CO)O2)c(=O)n1 | HIV-1 |  | MT-4, LAI.04 |  | 17
CC[C@@H]([C@H](C)O)n1ncn(-c2ccc(N3CCN(c4ccc(OC[C@@H]5CO[C@@](Cn6cncn6)(c6ccc(F)cc6F)C5)cc4)CC3)cc2)c1=O | Leishmania donovani | growth | LV82 promastigote |  | 2800
O=C(N[C@@H](Cn1ccnc1)c1ccc(Cl)cc1Cl)c1ccc(-c2nnc(-c3ccccc3)o2)cc1 | Trypanosoma cruzi |  | amastigotes |  | 1.2
CC(C)c1cnn2c(NCc3ccccc3-n3cccn3)nc(OC3CCCNC3)nc12 (stereo not shown) | human cytomegalovirus | viral replication |  | mean value | 10
C[C@@H]1[C@H](O)[C@@H](C)/C=C/C=C/C=C/C=C/C=C/C=C/C=C/[C@H](O[C@@H]2O[C@H](C)[C@@H](O)[C@H](N)[C@@H]2O)C[C@@H]2O[C@](O)(C[C@@H](O)C[C@@H](O)[C@H](O)CC[C@@H](O)C[C@@H](O)CC(=O)O[C@H]1C)C[C@H](O)[C@H]2C(=O)O | Leishmania donovani |  | intramacrophage amastigotes |  | 70
Cymbidium agglutinin | human cytomegalovirus | viral replication |  |  | 350
COc1ccc(C(=O)NN=Cc2ccc(O)c3ncccc23)cc1 | Bacillus subtilis | bacterial growth |  |  | 83000

Repeated from above:
Molecule | organism | test | system | setting | EC50 [nM]
C[C@H]1c2cccc(O)c2C(=O)C2=C(O)[C@]3(O)C(=O)C(C(N)=O)=C(O)[C@@H](N(C)C)[C@@H]3[C@@H](O)[C@@H]21 | Plasmodium falciparum | parasite growth | blood stage |  | 300
Nc1c(Cc2cccc3ccccc23)c(C2CC2)c2n(c1=O)C(C(=O)Nc1ccccc1)CS2 (stereo not shown) | Chlamydia trachomatis | infectivity | serovar L2 |  | < 60
